Assay results gathered from unrelated publications.
A part holds a random share of what one study measured. Substitutions count along the parent as printed.

Block 1
Target: CREB3L4, bZIP domain (human)
Method: DHFR protein complementation
Sample: yeast
Setting: single substitutions, most at no-binding floor
Baseline: wild-type JUN-FOS pair
Direction: higher = stronger binding
Starting sequence: JUN, bZIP domain (human); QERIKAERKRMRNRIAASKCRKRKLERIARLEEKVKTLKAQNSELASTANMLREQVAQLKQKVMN; partner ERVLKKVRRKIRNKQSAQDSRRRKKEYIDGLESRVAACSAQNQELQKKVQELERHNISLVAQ
Change	binding fitness
Q55A	-1.4 natural log
L59G	-1.46 natural log
N42L	-1.49 natural log
L38D	-1.43 natural log
L31Q	-1.48 natural log
Q41H	-1.54 natural log
M51P	-1.43 natural log
A57L	-1.4 natural log
A46S	-1.55 natural log
E54W	-1.46 natural log
Q55R	-1.53 natural log
L52Q	-1.46 natural log
T37M	-1.5 natural log
V35T	-1.46 natural log
L52P	-1.49 natural log
T48A	-1.35 natural log
S43G	-1.37 natural log
A46V	-1.43 natural log

Block 2
Target: Interferon regulatory factor 5, full length, phosphomimetic (IRF5, Homo sapiens, UniProt Q13568-2, residues 1-514, K96S/S451D/S453D/S456D/S462D)
Method: protein-binding microarray
Form: double-stranded DNA, one strand shown
Sample: in vitro
Concentration: 250 nM
Setting: 60-bp whole probe
Added: salmon DNA 0.4 mg/ml
Baseline: random background probes
Direction: higher = stronger binding
Shared flanks, not repeated: GCCTAGCAC … GTCTTGATTCGCTTGACGCTGCTG
Oligonucleotide	log fluorescence [z-score]
TTAGATATCAGTTGCGATTAGTGCTAG	2.49
GACGATTCCGGTTTCGAGACGTGCTAG	3.78
GACCGTATCGGTATCGGGACGTGCTAG	6.38
TTAGGTTTCCTTTCCCTATAGTGCTAG	1.74
GACGGTATCCTTTACCTGACGTGCTAG	-0.00473
CGCCCACTCATGCCTCTTAAGGTGCTA	-0.202
GACGATCACAGTCTCGAGACGTGCTAG	-0.428
GACGGTATCGCTCTCGGGACGTGCTAG	1.33
GACGGCTTCGACTTTCGGGACGTGCTA	4.11
CTAATTCTCTTTTCACTTTCGTGCTAG	5.08
GACGATTTCAGTTTCGGGACGTGCTAG	7.49
GACGGTATCGGTTTCGGAACGTGCTAG	9.33
TCAGCTTTGCCTTCAGCACTGTGCTAG	-0.116
TTAGGTTTCGGTTCCCGTTAGTGCTAG	10.5
TCATTCTTGGGACTCACACTGTGCTAG	-0.046
GACGGACTGCTTCTCCTGATGTGCTAG	-0.571
TGCATCGTAAGCAAAAATGAGTGCTAG	0.461
TTAGAACTGACACTGGATTAGTGCTAG	-0.121
TGGCTTTCCTTTATGTCCTGGTGCTAG	0.757

Block 3
Target: Histone acetyltransferase KAT6A, winged helix 2, GST fusion (KAT6A, Homo sapiens, UniProt Q92794, residues 85-181)
Method: protein binding microarray
Form: double-stranded DNA, one strand shown
Sample: in vitro
Concentration: not given
Setting: 8-mer, flanks averaged, mean of 2 arrays, mostly near background
Baseline: not given
Direction: higher = stronger binding
Target sequence (chain): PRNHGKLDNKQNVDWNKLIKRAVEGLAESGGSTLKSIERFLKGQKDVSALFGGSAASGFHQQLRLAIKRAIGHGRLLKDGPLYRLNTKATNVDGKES
Oligonucleotide	E-score
GAGCTGCA	-0.00242
ACCGGCTC	0.152
GGCAGCCC	0.0154
CATTATCC	0.0363
ATGGTACG	-0.0773
AAACACGT	-0.237
TTACCAAA	0.00301
CTCGATCC	0.0315
TGGGACAA	-0.0523
CTCACGTC	-0.133
CCCAGGAA	-0.0585
AAGCTTCT	-0.0889
AATCAGGC	0.0674
AGCAGACC	0.183
GATAGAGC	0.097
CCCAGGCC	0.057
GGTCAACA	0.0695
GCCGTCCC	0.113
AGCGAATG	-0.00155
CAGGTGGC	0.078
ATGATCTG	-0.109
GGCGCACA	0.042
GTACTGCA	-0.0084
CCAGCCCA	0.152
AGTGTCAG	-0.0114

Block 4
Target: Eukaryotic initiation factor 4A-I (EIF4A1, Homo sapiens, UniProt P60842, residues 1-406, full length assumed)
Sequence of UniProt P60842 (whole entry, looked up): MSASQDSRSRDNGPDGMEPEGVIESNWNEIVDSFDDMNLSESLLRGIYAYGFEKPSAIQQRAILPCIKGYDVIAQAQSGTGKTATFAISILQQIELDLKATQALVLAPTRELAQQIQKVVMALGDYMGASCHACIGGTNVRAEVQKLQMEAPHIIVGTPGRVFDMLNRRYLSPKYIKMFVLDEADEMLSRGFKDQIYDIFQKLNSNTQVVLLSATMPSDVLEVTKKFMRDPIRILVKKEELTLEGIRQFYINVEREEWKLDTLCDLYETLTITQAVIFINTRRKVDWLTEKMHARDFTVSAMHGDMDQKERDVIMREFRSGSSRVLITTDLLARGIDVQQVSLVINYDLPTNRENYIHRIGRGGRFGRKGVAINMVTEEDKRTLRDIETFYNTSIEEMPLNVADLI
Method: RNA Bind-n-Seq
Form: RNA
Sample: in vitro
Concentration: 15 pmol
Setting: 4-mer, random 30-nt RNA, single round
Added: DMSO vehicle, 2 mM AMP-PNP
Baseline: input library
Direction: higher = stronger binding
Oligonucleotide	4-mer enrichment
ACUG	1.3 fold
UGCU	1.18 fold
UCGU	0.716 fold
CGAA	1.11 fold
CAGU	0.965 fold
CAUA	1.08 fold
UCUA	0.797 fold
CUCG	0.909 fold
AGAU	0.86 fold
ACUA	0.881 fold
GUUG	0.881 fold
CCCU	1.64 fold
AGGG	1.14 fold
CGAG	0.875 fold
GUUU	0.871 fold
GGUU	0.938 fold
UCCG	0.837 fold

Block 5
Target: Centromere-binding protein 1, full length, His-tagged (CBF1, Saccharomyces cerevisiae, UniProt P17106, residues 1-351)
Sequence of UniProt P17106 (whole entry, looked up): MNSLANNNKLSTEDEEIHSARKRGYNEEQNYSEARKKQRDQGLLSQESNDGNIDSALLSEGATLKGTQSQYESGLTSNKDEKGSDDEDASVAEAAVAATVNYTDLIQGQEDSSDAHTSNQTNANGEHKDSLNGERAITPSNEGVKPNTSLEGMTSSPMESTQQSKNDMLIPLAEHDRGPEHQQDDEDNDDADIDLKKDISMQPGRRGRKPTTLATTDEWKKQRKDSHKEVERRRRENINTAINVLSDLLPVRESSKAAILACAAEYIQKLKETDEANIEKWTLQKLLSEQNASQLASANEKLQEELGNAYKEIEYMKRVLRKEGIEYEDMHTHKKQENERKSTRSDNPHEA
Method: competition protein-binding microarray
Form: double-stranded DNA, one strand shown
Sample: in vitro
Concentration: 2 µM
Setting: whole 60-bp probe, lowest competitor level
Added: Pho4 competitor, 0.05 µM
Direction: higher = stronger binding
Shared flanks, not repeated: … GTCTTGATTCGCTTGACGCTGCTG
Oligonucleotide	fluorescence intensity [a.u.]
TGTAGTTAAACAGTCCACGTGTATTTGACTGCAGTA	1100
AGCGTAATCTATACCCACGTAAACCCATTGAGATAA	65.6
CTTCTGTAAATTTGTAAGGTGGGTGGACGCGCCCCG	83.1
CGGGGTTAAGTTTGTAAGGTGGGTGGCTTGCAGCAG	66.8
CTTCTGTAAATTTGTCACAAAACTTGACGCGCCCCG	102
CTTCTGTAAATTTGGACCGTGGGTGGACGCGCCCCG	76.2
CGTCCTAGTGATTGTCACTTAACTTCCATGAGGAAG	83
AAAGCGGTAATTTTTCACGTGGACTCACATATCTAT	820
AAAAACATTTCCTGTCACATGTTAGTAAAACAGAAA	2700
CATACCCAACCTTGCGTTGTGGGTGAAGATATTTGT	68.7
TGCGCAACAACTTGTCACGATACTTTATGTCTAGAA	272
GTCTTGTCTCATTGTCACCATACTTTCCCCACTTCA	108
ATAATCTTCTCAGGACACGTAATCTTCTGATCCAGA	95.9
ACTTTCTTTCTGTTCCACGTGGGTACACCACTTCAA	817
GTCTTGTCTCATTGTCCAGTGGGTGTCCCCACTTCA	84.4
CTTGGGGTCTAGAAGCTCGTGTTCCATTCTTAGACA	80.7
CTTGCAGCTTTTTCTTTAAGGTAAAAATCATTTTGG	70.3
CTAACGAAGGTTTGAGCCGTGGGTGACAAGCCAAGT	59.9
TCCGCGCCGTATGTGTGTGTGACAGTGGAGTTTGCA	92.5

Repeated from above (block 2):
Oligonucleotide	log fluorescence [z-score]
GACGATTCCGGTTTCGAGACGTGCTAG	3.78
GACCGTATCGGTATCGGGACGTGCTAG	6.38
TTAGGTTTCCTTTCCCTATAGTGCTAG	1.74
GACGGTATCCTTTACCTGACGTGCTAG	-0.00473
CGCCCACTCATGCCTCTTAAGGTGCTA	-0.202
GACGATCACAGTCTCGAGACGTGCTAG	-0.428
GACGGTATCGCTCTCGGGACGTGCTAG	1.33
GACGGCTTCGACTTTCGGGACGTGCTA	4.11
CTAATTCTCTTTTCACTTTCGTGCTAG	5.08
GACGATTTCAGTTTCGGGACGTGCTAG	7.49
GACGGTATCGGTTTCGGAACGTGCTAG	9.33
TCAGCTTTGCCTTCAGCACTGTGCTAG	-0.116
